{"data": "Measured values from different studies", "note": "Each numbered part is a random draw from the data of one study; scales do not carry over between parts. Several values in a cell are separate wells, animals, samples, runs or records.", "chain of UniProt Q9UF33 (whole entry, looked up)": "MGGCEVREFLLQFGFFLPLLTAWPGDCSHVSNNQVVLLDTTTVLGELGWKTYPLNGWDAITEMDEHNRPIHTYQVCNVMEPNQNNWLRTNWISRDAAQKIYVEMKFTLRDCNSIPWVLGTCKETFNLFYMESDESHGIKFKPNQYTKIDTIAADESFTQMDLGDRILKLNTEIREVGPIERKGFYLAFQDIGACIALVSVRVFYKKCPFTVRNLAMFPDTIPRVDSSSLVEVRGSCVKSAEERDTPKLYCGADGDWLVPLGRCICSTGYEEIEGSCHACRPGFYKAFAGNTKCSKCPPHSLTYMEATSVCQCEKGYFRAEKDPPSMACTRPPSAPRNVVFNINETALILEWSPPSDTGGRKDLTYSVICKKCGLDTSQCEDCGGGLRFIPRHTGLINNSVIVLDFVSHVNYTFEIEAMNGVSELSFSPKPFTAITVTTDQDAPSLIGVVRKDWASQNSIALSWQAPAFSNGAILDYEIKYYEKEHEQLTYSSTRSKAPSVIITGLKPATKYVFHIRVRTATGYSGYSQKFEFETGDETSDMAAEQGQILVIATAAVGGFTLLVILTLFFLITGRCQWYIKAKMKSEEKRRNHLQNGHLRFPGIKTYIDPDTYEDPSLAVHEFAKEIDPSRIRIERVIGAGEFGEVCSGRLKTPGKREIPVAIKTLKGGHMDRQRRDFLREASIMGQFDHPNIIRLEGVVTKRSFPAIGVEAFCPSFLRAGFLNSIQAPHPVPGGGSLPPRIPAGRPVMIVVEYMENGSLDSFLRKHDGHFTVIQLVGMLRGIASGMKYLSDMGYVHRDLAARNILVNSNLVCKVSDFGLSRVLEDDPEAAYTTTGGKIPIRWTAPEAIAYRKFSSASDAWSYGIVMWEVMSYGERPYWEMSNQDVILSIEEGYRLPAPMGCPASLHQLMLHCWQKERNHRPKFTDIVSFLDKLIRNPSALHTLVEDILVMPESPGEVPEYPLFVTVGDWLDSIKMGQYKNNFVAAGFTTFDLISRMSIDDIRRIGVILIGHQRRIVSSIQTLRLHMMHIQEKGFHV", "chain of UniProt Q12866 (whole entry, looked up)": "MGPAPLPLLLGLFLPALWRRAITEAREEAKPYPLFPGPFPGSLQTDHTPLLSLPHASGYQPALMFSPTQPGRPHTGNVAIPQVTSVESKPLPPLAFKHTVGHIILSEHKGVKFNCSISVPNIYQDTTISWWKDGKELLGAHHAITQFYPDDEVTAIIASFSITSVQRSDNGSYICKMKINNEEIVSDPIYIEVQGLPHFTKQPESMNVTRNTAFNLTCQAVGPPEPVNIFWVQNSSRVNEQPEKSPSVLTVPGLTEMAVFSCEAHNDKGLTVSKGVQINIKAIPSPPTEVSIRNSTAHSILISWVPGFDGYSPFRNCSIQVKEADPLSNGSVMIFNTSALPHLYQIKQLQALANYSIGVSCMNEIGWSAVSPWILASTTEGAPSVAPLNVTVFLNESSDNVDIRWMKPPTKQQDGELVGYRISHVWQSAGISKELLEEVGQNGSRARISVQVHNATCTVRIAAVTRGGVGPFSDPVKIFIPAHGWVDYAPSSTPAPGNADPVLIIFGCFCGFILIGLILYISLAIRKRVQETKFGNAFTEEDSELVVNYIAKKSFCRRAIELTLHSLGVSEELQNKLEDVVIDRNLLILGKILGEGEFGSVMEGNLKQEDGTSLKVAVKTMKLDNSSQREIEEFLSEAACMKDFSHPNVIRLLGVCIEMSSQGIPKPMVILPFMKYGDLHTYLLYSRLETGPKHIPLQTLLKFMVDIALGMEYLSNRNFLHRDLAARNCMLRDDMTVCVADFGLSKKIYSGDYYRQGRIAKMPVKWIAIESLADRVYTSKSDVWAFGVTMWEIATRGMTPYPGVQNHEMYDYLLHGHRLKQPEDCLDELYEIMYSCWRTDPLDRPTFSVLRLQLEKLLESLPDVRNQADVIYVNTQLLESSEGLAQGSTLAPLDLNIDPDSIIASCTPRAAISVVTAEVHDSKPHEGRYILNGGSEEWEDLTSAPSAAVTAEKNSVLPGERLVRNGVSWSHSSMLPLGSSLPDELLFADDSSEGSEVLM", "chain of UniProt Q9HC98 (whole entry, looked up)": "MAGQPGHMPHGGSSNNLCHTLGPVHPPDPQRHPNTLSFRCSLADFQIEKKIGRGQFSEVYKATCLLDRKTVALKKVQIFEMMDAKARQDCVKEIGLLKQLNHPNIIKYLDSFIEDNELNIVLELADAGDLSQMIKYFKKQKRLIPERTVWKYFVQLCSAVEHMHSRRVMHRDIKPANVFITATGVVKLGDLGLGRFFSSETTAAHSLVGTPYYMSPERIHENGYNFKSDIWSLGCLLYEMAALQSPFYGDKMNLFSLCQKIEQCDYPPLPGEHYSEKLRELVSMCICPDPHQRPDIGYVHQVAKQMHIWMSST", "chain of UniProt P29597 (whole entry, looked up)": "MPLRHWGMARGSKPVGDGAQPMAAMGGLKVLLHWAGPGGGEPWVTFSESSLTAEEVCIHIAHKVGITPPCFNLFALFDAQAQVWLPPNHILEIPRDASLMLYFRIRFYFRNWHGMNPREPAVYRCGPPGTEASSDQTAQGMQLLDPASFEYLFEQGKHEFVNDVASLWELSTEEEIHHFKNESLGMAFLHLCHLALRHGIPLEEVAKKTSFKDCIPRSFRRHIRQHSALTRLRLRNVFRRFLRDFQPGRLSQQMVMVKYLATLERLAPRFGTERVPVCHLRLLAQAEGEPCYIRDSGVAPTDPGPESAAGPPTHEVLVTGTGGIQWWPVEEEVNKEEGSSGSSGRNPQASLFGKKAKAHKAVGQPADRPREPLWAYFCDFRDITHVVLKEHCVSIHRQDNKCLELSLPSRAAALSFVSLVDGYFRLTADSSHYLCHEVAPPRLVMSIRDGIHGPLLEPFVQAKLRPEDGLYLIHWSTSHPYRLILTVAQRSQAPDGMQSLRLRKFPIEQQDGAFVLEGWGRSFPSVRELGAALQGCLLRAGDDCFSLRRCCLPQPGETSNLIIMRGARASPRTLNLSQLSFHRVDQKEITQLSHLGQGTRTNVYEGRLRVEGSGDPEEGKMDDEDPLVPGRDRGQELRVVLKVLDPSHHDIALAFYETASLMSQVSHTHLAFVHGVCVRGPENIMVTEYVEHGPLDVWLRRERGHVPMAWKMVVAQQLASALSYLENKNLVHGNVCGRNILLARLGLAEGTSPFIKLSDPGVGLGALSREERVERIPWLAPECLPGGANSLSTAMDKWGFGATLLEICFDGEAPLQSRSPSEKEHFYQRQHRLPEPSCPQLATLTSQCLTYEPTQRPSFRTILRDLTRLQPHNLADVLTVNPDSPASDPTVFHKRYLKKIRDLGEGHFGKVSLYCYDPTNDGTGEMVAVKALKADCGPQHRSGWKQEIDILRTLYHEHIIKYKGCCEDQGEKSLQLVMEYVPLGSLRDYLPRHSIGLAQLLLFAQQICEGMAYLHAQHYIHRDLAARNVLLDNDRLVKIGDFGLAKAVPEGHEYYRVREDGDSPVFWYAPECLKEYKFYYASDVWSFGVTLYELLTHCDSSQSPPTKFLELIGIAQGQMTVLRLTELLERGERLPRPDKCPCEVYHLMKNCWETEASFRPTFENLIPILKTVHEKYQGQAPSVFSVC", "chain of UniProt Q02763 (whole entry, looked up)": "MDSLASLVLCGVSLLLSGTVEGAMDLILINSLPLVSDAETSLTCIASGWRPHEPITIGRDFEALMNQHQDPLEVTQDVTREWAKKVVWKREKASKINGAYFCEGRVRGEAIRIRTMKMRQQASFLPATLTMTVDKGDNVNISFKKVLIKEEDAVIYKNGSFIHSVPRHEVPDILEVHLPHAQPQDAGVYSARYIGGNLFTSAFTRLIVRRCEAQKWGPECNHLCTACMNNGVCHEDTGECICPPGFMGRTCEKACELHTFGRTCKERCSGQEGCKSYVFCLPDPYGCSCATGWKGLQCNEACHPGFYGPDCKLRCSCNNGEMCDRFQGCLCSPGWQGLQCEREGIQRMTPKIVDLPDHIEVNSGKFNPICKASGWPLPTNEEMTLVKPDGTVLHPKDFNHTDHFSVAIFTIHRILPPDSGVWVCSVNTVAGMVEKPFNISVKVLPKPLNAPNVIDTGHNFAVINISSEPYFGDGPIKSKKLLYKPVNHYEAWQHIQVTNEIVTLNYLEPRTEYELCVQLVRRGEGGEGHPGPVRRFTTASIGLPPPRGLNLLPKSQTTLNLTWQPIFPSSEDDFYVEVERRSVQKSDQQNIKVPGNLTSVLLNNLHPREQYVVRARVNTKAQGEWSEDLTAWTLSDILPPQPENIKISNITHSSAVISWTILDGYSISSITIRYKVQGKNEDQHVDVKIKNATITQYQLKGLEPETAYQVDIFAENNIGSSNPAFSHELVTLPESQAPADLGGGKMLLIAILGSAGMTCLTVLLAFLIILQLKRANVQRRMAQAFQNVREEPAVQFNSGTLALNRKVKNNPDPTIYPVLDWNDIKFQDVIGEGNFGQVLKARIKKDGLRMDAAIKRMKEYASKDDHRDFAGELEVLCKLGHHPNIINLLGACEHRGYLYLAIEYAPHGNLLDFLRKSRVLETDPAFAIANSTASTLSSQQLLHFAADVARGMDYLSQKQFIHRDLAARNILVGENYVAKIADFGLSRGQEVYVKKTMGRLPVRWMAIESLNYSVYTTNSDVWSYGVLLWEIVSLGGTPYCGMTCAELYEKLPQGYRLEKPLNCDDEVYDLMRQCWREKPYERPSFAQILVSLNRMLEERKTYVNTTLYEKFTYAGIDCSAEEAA", "chain of UniProt Q9BXA7 (whole entry, looked up)": "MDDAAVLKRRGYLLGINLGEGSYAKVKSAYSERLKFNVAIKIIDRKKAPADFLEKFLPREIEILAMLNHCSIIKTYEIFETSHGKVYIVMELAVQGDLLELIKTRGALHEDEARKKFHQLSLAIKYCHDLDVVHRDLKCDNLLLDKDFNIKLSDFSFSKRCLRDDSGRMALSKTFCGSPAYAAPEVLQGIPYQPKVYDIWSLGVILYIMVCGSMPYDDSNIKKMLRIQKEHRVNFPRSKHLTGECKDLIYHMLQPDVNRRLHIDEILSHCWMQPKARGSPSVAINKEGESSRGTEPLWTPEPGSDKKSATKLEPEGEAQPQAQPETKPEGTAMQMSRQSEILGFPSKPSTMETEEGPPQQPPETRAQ"}
{"data": "Block 1", "SMILES": "CN(C(=O)c1ccccc1)c1cc(N(C)c2ccc3c(c2)CCc2ccc(C(=O)NCCN4CCOCC4)cc2C3=O)ccc1F", "observed": "cell-free assay", "method": "competition with immobilised ligand", "concentration": "1 µM"}
{"target": "Cyclin-dependent kinase 16 (CDK16, Homo sapiens, UniProt Q00536)", "remaining binding [%]": 100}
{"target": "Tyrosine-protein kinase ABL1, phosphorylated (ABL1, Homo sapiens, UniProt P00519, T315I)", "remaining binding [%]": 84}
{"target": "Tyrosine-protein kinase BTK (BTK, Homo sapiens, UniProt Q06187)", "remaining binding [%]": 100}
{"target": "Non-receptor tyrosine-protein kinase TYK2, JH2 (TYK2, Homo sapiens, UniProt P29597)", "remaining binding [%]": 100}
{"target": "Ribosomal protein S6 kinase beta-1 (RPS6KB1, Homo sapiens, UniProt P23443)", "remaining binding [%]": 77}
{"target": "Mitogen-activated protein kinase kinase kinase 9 (MAP3K9, Homo sapiens, UniProt P80192)", "remaining binding [%]": 92}
{"target": "Mitogen-activated protein kinase 14 (MAPK14, Homo sapiens, UniProt Q16539)", "remaining binding [%]": 100}
{"target": "Serine/threonine-protein kinase Nek9 (NEK9, Homo sapiens, UniProt Q8TD19)", "remaining binding [%]": 95}
{"target": "Mitogen-activated protein kinase 7 (MAPK7, Homo sapiens, UniProt Q13164)", "remaining binding [%]": 100}
{"target": "Tyrosine-protein kinase receptor Tie-1 (TIE1, Homo sapiens, UniProt P35590)", "remaining binding [%]": 100}
{"target": "Calcium/calmodulin-dependent protein kinase kinase 1 (CAMKK1, Homo sapiens, UniProt Q8N5S9)", "remaining binding [%]": 99}
{"target": "Testis-specific serine/threonine-protein kinase 1 (TSSK1B, Homo sapiens, UniProt Q9BXA7)", "remaining binding [%]": 65}
{"target": "Ephrin type-A receptor 6 (EPHA6, Homo sapiens, UniProt Q9UF33)", "remaining binding [%]": 94}
{"target": "Interleukin-1 receptor-associated kinase 1 (IRAK1, Homo sapiens, UniProt P51617)", "remaining binding [%]": 100}
{"target": "Mitogen-activated protein kinase 13 (MAPK13, Homo sapiens, UniProt O15264)", "remaining binding [%]": 100}
{"target": "Cyclin-dependent kinase 4, with cyclin D1 (CDK4, Homo sapiens, UniProt P11802)", "remaining binding [%]": 100}
{"data": "Block 2", "matrix": "1,9-decadiene/PBS", "pH": "7.4"}
{"Compound": "CC(C)C[C@@H]1NC(=O)[C@H](CC(C)C)NC(=O)[C@H](CC(C)C)NC(=O)[C@H](Cc2cscn2)NC(=O)[C@@H](Cc2cscn2)NC(=O)[C@H](Cc2cscn2)NC(=O)[C@H](CCC(=O)N2CCCC2)NC1=O", "logD": -2.21}
{"Compound": "CC(C)C[C@@H]1NC(=O)[C@H](CC(C)C)NC(=O)[C@@H](CC(C)C)NC(=O)[C@@H](C(C)C)NC(=O)[C@H](C)NC(=O)[C@H](CC(C)C)NC(=O)[C@@H](CC(C)C)NC1=O", "logD": 1.67}
{"Compound": "CC(C)C[C@@H]1NC(=O)[C@H](Cc2cscn2)NC(=O)[C@H](C)NC(=O)[C@H](CC(C)C)NC(=O)[C@@H](CCC(=O)N2CCCC2)NC(=O)[C@H](CC(C)C)NC(=O)[C@@H](CC(C)C)NC1=O", "logD": -1.48}
{"Compound": "CC(C)C[C@@H]1NC(=O)[C@H](CC(C)C)NC(=O)[C@@H](CC(C)C)NC(=O)[C@H](Cc2cscn2)NC(=O)[C@@H](CCC(=O)N2CCCC2)NC(=O)[C@H](Cc2cscn2)NC(=O)[C@H](C)NC1=O", "logD": -2.7}
{"Compound": "CC(C)C[C@@H]1NC(=O)[C@H](Cc2cscn2)NC(=O)[C@H](Cc2cscn2)NC(=O)[C@H](CCC(=O)N2CCCC2)NC(=O)[C@@H](CCC(=O)N2CCCC2)NC(=O)[C@H](CC(C)C)NC(=O)[C@@H](CC(C)C)NC1=O", "logD": -2.72}
{"data": "Block 3", "cell line": "mouse MPNST tumor cells", "method": "high-content immunofluorescence imaging", "refers to": "nuclear SOX9", "concentration": "10 µM", "time": "12 h", "setting": "mean of 2 replicates", "reference": "DMSO control", "direction": "higher = more nuclear SOX9"}
{"SMILES": "c1cc(-c2sc(-c3ccncc3)c(-c3ccncc3)c2-c2ccncc2)ccn1", "nuclear SOX9 intensity": "100 % of DMSO"}
{"SMILES": "CC(=O)OCC(=O)[C@@]12N=C(C)O[C@@H]1C[C@H]1[C@@H]3CCC4=CC(=O)C=C[C@]4(C)[C@H]3[C@@H](O)C[C@@]12C", "nuclear SOX9 intensity": "87.8 % of DMSO"}
{"SMILES": "OC(CCCN1CCCCC1)(c1ccccc1)c1ccccc1", "nuclear SOX9 intensity": "97.2 % of DMSO and 117 % of DMSO"}
{"SMILES": "Nc1ncnc2c1nc(Br)n2[C@@H]1O[C@@H]2COP(=O)(O)O[C@H]2[C@H]1O", "nuclear SOX9 intensity": "88.5 % of DMSO"}
{"SMILES": "COc1cc2c(cc1C(F)(F)F)N(C(=O)Nc1cc(F)cc(-c3cccnc3)c1)CC2", "nuclear SOX9 intensity": "202 % of DMSO"}
{"data": "Block 4", "Compound": "O=c1cc(N2CCOCC2)oc2c1ccc1ccccc12", "observed": "enzyme activity", "mode": "inhibitor", "concentration": "0.5 µM", "reference": "control"}
{"target": "Activin receptor type-1B (ACVR1B, Homo sapiens, UniProt P36896)", "remaining activity [%]": 103}
{"target": "Macrophage-stimulating protein receptor (MST1R, Homo sapiens, UniProt Q04912)", "remaining activity [%]": 103}
{"target": "Ribosomal protein S6 kinase alpha-2 (RPS6KA2, Homo sapiens, UniProt Q15349)", "remaining activity [%]": 98.8}
{"target": "Mitogen-activated protein kinase kinase kinase 5 (MAP3K5, Homo sapiens, UniProt Q99683)", "remaining activity [%]": 98.2}
{"target": "Mitogen-activated protein kinase 3 (MAPK3, Homo sapiens, UniProt P27361)", "remaining activity [%]": 106}
{"target": "Tyrosine-protein kinase FRK (FRK, Homo sapiens, UniProt P42685)", "remaining activity [%]": 98.8}
{"target": "Tyrosine-protein kinase Mer (MERTK, Homo sapiens, UniProt Q12866)", "remaining activity [%]": 96.4}
{"target": "Fibroblast growth factor receptor 1 (FGFR1, Homo sapiens, UniProt P11362)", "remaining activity [%]": 92.1}
{"target": "MAP kinase-activated protein kinase 2 (MAPKAPK2, Homo sapiens, UniProt P49137)", "remaining activity [%]": 98.3}
{"target": "Serine/threonine-protein kinase Nek6 (NEK6, Homo sapiens, UniProt Q9HC98)", "remaining activity [%]": 92.5}
{"target": "Mitogen-activated protein kinase kinase kinase 14 (MAP3K14, Homo sapiens, UniProt Q99558)", "remaining activity [%]": 81.2}
{"target": "Casein kinase I isoform gamma-2 (CSNK1G2, Homo sapiens, UniProt P78368)", "remaining activity [%]": 102}
{"target": "Tyrosine-protein kinase Lck (LCK, Homo sapiens, UniProt P06239)", "remaining activity [%]": 99.2}
{"target": "Angiopoietin-1 receptor (TEK, Homo sapiens, UniProt Q02763)", "remaining activity [%]": 94.4}
{"note": "Some of these lines once more (block 1):"}
{"target": "Serine/threonine-protein kinase Nek9 (NEK9, Homo sapiens, UniProt Q8TD19)", "remaining binding [%]": 95}
{"target": "Mitogen-activated protein kinase 7 (MAPK7, Homo sapiens, UniProt Q13164)", "remaining binding [%]": 100}
{"target": "Tyrosine-protein kinase receptor Tie-1 (TIE1, Homo sapiens, UniProt P35590)", "remaining binding [%]": 100}
{"target": "Calcium/calmodulin-dependent protein kinase kinase 1 (CAMKK1, Homo sapiens, UniProt Q8N5S9)", "remaining binding [%]": 99}
{"target": "Testis-specific serine/threonine-protein kinase 1 (TSSK1B, Homo sapiens, UniProt Q9BXA7)", "remaining binding [%]": 65}
